Results of several laboratories.
Lines come from different studies, so protocols differ. ± marks the error that the study gave.
OPRM1: Mu-type opioid receptor (OPRM1, Homo sapiens, UniProt P35372)
Bche: Cholinesterase (Bche, Mus musculus, UniProt Q03311)

Amino acid sequences for entries named in this document (tags omitted). Residues count along the entry.
UniProt P35372, whole entry: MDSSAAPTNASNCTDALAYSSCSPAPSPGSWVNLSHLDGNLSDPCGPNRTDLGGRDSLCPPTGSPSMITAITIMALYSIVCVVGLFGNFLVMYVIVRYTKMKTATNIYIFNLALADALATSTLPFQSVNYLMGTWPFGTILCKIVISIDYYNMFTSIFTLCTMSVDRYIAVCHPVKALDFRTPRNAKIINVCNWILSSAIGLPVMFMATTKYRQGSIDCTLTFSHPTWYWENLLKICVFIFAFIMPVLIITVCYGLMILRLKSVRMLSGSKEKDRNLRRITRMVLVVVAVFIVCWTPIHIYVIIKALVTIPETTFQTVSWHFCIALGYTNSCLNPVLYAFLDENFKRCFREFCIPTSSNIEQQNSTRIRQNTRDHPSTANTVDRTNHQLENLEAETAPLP
UniProt Q03311, whole entry, looked up: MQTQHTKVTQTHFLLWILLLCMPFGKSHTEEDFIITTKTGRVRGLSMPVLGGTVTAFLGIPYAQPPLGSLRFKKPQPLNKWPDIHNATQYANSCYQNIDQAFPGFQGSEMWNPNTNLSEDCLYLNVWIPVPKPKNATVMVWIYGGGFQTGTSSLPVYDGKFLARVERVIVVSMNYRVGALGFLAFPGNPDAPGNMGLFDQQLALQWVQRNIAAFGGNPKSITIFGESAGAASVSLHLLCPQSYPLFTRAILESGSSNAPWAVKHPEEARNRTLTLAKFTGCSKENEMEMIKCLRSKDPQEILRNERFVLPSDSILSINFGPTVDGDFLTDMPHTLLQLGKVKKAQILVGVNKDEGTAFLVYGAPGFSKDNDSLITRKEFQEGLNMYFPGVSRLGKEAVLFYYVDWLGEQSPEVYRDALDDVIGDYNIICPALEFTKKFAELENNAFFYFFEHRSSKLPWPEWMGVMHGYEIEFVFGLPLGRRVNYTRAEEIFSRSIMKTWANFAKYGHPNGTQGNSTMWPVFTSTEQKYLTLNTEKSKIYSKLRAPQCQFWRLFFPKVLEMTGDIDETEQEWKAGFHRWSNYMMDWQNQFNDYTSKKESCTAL
UniProt P41145, whole entry: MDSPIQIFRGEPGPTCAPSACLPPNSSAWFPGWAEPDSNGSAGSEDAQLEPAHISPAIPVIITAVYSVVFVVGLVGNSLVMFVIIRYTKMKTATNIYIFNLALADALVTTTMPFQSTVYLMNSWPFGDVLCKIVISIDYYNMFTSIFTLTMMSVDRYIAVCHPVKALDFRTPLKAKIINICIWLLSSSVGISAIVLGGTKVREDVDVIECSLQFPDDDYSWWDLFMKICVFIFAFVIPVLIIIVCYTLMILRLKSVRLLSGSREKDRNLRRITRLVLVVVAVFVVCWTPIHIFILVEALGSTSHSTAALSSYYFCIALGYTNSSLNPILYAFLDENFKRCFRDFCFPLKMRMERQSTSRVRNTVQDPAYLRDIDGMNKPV
UniProt P41144, whole entry: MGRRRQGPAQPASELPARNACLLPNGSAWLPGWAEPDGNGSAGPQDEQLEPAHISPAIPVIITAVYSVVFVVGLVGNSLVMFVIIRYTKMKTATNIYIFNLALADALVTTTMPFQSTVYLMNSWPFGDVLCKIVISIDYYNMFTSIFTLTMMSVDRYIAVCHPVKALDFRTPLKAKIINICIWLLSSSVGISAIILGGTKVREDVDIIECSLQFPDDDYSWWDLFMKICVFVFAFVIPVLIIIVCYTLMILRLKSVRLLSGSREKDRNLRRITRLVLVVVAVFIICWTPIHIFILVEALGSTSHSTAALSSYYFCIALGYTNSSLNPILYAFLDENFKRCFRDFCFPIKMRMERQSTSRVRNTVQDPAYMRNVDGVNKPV
UniProt Q99720, whole entry: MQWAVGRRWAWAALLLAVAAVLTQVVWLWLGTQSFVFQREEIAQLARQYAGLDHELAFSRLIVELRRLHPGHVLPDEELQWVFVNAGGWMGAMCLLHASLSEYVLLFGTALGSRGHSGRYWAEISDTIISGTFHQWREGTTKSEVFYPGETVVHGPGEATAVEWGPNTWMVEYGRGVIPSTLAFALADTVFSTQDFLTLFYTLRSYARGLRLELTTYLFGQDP
UniProt P23953, whole entry, looked up: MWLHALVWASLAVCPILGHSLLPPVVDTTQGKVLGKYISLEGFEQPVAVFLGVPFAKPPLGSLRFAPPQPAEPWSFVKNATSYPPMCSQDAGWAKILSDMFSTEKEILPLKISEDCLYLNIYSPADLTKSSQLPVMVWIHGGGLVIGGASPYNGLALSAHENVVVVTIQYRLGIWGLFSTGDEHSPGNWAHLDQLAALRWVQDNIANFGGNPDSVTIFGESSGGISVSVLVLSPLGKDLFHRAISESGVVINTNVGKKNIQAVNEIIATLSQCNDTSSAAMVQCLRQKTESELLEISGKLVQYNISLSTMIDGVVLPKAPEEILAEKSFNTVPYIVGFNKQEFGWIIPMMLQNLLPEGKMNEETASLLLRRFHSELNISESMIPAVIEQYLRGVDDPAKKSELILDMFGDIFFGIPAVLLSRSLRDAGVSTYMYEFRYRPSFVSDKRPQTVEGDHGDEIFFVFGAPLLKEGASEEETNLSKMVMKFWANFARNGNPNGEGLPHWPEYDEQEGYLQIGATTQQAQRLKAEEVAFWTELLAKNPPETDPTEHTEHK
UniProt P02708, whole entry, looked up: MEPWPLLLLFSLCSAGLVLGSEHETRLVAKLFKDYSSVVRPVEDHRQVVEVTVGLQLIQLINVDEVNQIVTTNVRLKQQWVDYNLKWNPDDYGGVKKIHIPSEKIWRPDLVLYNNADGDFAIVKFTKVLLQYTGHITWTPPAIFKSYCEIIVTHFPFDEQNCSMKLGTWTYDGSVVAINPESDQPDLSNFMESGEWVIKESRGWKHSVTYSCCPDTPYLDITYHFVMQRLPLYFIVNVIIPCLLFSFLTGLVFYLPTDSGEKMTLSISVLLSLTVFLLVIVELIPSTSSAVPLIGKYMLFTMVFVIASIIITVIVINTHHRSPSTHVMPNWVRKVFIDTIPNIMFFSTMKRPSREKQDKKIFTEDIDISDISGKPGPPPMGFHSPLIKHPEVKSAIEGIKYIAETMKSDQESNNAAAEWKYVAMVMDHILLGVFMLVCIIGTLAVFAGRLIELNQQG
UniProt P11230, whole entry, looked up: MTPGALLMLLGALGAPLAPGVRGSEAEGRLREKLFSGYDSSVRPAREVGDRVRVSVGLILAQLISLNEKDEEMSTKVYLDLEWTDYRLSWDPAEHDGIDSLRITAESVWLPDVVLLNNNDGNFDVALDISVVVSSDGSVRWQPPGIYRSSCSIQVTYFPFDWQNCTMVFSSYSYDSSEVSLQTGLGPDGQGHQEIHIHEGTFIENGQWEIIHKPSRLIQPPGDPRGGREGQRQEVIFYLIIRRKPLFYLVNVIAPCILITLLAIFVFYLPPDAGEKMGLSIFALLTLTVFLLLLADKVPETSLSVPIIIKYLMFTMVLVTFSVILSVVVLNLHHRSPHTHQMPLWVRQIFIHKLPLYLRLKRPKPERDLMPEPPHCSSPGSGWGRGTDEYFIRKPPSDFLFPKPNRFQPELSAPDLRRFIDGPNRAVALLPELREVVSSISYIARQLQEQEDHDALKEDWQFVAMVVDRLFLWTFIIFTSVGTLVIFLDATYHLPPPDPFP
UniProt Q04844, whole entry, looked up: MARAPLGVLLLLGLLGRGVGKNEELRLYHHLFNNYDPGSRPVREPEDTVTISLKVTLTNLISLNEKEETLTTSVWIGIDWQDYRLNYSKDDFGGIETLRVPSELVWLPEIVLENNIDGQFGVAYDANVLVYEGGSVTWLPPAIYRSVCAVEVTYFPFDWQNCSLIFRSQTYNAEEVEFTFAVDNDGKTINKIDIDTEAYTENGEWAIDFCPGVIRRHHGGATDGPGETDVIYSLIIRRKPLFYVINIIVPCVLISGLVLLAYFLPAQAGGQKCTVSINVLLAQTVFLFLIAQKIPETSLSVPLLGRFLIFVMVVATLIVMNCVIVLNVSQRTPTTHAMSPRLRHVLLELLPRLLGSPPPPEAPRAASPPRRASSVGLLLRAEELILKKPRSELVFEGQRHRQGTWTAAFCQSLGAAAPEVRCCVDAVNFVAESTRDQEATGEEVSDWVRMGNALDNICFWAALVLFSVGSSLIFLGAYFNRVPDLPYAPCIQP
UniProt Q07001, whole entry, looked up: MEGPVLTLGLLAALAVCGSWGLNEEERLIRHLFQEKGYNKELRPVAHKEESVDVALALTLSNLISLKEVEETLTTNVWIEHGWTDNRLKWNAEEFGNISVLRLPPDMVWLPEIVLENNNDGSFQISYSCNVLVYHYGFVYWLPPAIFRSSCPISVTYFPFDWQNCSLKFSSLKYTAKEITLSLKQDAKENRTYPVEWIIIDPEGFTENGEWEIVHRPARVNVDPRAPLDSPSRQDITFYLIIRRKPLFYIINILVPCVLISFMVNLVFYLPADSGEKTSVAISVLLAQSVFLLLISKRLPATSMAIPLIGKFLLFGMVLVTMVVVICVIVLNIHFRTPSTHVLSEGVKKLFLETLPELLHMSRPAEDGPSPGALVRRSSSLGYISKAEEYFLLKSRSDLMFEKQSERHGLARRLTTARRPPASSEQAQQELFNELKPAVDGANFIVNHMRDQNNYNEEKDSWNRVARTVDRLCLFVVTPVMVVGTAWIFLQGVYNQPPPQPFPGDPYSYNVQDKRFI
UniProt P22303, 32-614 limits assumed: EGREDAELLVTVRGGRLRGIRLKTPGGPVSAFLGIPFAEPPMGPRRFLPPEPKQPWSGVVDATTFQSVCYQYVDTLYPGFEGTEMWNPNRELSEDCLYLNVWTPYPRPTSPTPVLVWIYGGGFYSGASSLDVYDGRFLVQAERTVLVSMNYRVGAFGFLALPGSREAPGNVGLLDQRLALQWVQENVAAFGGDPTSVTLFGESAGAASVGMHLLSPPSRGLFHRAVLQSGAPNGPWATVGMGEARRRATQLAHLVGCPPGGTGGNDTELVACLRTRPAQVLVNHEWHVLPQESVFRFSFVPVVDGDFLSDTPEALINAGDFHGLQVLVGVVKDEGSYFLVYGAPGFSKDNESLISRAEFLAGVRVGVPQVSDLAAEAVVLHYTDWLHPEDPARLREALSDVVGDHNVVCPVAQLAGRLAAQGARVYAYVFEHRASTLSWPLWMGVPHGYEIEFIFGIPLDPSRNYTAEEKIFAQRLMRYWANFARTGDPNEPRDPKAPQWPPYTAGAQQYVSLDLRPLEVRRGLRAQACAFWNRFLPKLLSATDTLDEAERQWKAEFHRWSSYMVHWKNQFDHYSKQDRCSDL
UniProt P22303, whole entry, looked up: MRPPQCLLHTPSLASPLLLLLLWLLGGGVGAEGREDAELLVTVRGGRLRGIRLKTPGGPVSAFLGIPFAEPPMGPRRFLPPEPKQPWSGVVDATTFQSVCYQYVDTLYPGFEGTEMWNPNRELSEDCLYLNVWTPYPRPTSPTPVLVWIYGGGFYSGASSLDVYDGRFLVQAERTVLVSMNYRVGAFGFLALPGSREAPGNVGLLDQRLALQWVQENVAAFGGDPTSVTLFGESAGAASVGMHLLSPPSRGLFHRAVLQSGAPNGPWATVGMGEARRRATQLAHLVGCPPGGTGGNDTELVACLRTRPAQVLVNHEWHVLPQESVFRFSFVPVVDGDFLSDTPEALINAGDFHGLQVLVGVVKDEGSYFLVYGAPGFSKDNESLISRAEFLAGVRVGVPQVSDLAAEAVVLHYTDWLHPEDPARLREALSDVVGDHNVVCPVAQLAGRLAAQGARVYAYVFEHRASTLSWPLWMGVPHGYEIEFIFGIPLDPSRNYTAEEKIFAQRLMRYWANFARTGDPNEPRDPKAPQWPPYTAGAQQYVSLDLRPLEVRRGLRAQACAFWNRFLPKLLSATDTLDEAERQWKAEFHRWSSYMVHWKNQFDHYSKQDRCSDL
UniProt Q9GZZ6, 25-450 limits assumed: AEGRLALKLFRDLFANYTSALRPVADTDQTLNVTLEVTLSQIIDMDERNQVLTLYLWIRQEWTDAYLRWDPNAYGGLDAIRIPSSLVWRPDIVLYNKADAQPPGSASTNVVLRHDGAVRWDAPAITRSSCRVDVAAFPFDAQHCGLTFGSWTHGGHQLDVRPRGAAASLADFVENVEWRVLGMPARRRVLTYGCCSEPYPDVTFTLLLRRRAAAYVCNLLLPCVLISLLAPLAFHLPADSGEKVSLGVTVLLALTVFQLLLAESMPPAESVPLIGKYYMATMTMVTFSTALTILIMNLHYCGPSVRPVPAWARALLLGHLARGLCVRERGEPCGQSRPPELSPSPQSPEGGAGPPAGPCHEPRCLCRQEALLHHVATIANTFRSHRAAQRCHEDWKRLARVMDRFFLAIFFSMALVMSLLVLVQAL
UniProt Q9UGM1, 26-479 limits assumed: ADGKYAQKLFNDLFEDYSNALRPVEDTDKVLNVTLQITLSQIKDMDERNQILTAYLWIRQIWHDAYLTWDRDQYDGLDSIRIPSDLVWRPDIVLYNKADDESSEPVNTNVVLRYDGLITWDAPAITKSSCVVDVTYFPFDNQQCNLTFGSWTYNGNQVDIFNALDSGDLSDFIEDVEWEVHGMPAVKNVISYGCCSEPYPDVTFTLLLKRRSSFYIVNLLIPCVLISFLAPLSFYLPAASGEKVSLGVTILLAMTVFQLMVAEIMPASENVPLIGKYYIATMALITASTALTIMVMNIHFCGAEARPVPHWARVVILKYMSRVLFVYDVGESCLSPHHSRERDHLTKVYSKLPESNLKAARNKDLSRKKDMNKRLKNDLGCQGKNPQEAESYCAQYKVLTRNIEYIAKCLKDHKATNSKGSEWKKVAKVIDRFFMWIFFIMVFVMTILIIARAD

Structure (SMILES)	target or system	assay	test system	conditions	how to read	endpoint	result
CCC1C(=O)N(C2CCN(Cc3cccc4[nH]ccc34)CC2)c2ccccc21 (stereo not drawn)	OPRM1	agonist	cell membranes			EC50	23.4 ± 5.6 nM
CCCCCc1cc(O)c([C@@H]2C=C(C)CC[C@H]2C(C)C)c(O)c1	OPRM1	cAMP inhibition reversal, antagonist		together with: fentanyl	baseline: cannabidiol IC50 over compound IC50	IC50 ratio	~86
CCOP(=S)(OCC)Oc1cc(C)nc(C(C)C)n1	Bche		ES1-/- mice, plasma	subcutaneous, 50.0 mg/kg, 2.0 h, toxicant challenge		inhibition	81.7 ± 1.1%
Oc1cccc(N2[C@@H]3CC[C@H]2CN(CCCc2ccccc2)C3)c1	OPRK1 (Homo sapiens, UniProt P41145)	SAFETYscan		human receptor		Imax	89.9%
Nc1nc(=O)c2ncc(C(=O)O)nc2[nH]1	Ricin, A chain (Ricinus communis, UniProt P02879)	differential scanning fluorimetry		500 µM, pH 7.5, 2 µM protein		ΔTm	2 °C
O=CN1CC[C@]23c4c5ccc(O)c4O[C@H]2[C@@H](O)C=C[C@H]3[C@H]1C5	OPRK1 (Cavia porcellus, UniProt P41144)	antagonist	guinea pig ileum			Ke	1890 nM
CO[C@]12CC[C@@]3(C[C@@H]1[C@@](C)(O)c1ccccn1)[C@H]1Cc4ccc(O)c5c4[C@@]3(CCN1CC1CC1)[C@H]2O5	OPRK1 (Homo sapiens, UniProt P41145)	G-protein activation, agonist		10 µM	baseline: U-69593	stimulation	39 ± 12%
Cc1cc2c(-c3ccco3)cnc(N[C@H]3CCN(C)C[C@@H]3C(=O)NC3CCCCC3)c2[nH]c1=O	SIGMAR1 (Homo sapiens, UniProt Q99720)	binding, radioligand binding		10 µM		inhibition	-20.8%
NC12CC3CC(CC(C3)C1)C2	Influenza A virus	viral replication, plaque size reduction	MDCK, A/Swine/Iowa/13-0505/2010 (H3N2)			EC50	< 1000 nM
NC(=O)c1ccc[n+]([C@@H]2O[C@H](COP(=O)([O-])OP(=O)(O)OC[C@H]3O[C@@H](n4cnc5c(N)ncnc54)[C@H](O)[C@@H]3O)[C@@H](O)[C@H]2O)c1	guaB (Bacillus anthracis, UniProt A0A6L8P2U9)	substrate				Kii	3.9 ± 0.5 mM
C[C@H](NP(=O)(Nc1ccn([C@H]2CS[C@@H](CO)O2)c(=O)n1)N[C@@H](C)C(=O)OCc1ccccc1)C(=O)OCc1ccccc1	Caco-2	cell proliferation		3 d		IC50	> 250000 nM
CCOP(=O)(OCC)Oc1ccc([N+](=O)[O-])cc1	Ces1c (Mus musculus, UniProt P23953)	alpha-naphthyl acetate hydrolysis	ES1+/+ mice, plasma	subcutaneous, 0.2 mg/kg, 0.5 h, toxicant challenge		inhibition	91%
CC[C@H](C)[C@@H]1NC(=O)[C@H](CC(N)=O)NC(=O)[C@H](Cc2ccc(O)cc2)NC(=O)[C@H]([C@@H](C)O)NC(=O)[C@@H]2CSSC[C@@H]3NC(=O)[C@H](CC(N)=O)NC(=O)[C@H](Cc4ccc(O)cc4)NC(=O)[C@H](C(C)C)NC(=O)CNC(=O)[C@H]([C@@H](C)O)NC(=O)CNC(=O)[C@H](CCCCN)NC(=O)[C@@H]4CSSC[C@H](NC(=O)[C@H](CO)NC(=O)[C@H](CC(C(=O)O)C(=O)O)NC(=O)CNC3=O)C(=O)N[C@@H](CO)C(=O)N[C@H]3CSSC[C@H](NC(=O)CNC(=O)[C@H](CO)NC(=O)[C@H](CCCCN)NC(=O)[C@H](CCSC)NC(=O)[C@H](CO)NC(=O)CNC1=O)C(=O)N[C@@H](C)C(=O)N[C@@H](CSSC[C@H](NC(=O)[C@H](CO)NC(=O)[C@H](Cc1c[nH]cn1)NC(=O)[C@H](CC(C)C)NC(=O)CNC(=O)[C@H](CC(C(=O)O)C(=O)O)NC3=O)C(=O)N[C@@H](CCCNC(=N)N)C(=O)N2)C(=O)N[C@@H]([C@@H](C)CC)C(=O)N[C@H](C(=O)N[C@H](C(=O)N[C@@H](Cc1ccc(O)cc1)C(=O)N[C@@H](Cc1ccc(O)cc1)C(=O)O)[C@@H](C)O)CSSC[C@H](NC(=O)[C@@H](N)CCCCN)C(=O)N[C@@H](CC(N)=O)C(=O)N[C@@H](Cc1ccccc1)C(=O)N[C@@H](CC(=O)O)C(=O)N[C@@H](CCCCN)C(=O)N4	Nicotinic acetylcholine receptor alpha-1/beta-1/delta/epsilon (Homo sapiens, UniProt P02708+P11230+Q04844+Q07001)	ion current, antagonist	Xenopus oocytes			Hill slope	0.71
CCN(CC)Cc1cc(N)ccc1O	Acetylcholinesterase, paraoxon-inhibited (ACHE, Homo sapiens, UniProt P22303)	reactivation of inhibited enzyme, reactivator		together with: paraoxon-inhibited enzyme		KR	11 ± 9.1 µM
CCC1C(=O)N(C2CCN(C3CCCc4ccccc43)CC2)c2ccccc21 (stereo not drawn)	OPRM1	radioligand displacement		together with: [3H]DAMGO		Ki	1.05 ± 0.14 nM
C[C@@H]1NC(=O)[C@H](CCCNC(=N)N)NC(=O)[C@H](CCCNC(=N)N)NC(=O)[C@H](CCCNC(=N)N)NC(=O)[C@H](CO)NC(=O)[C@@H]2CSSC[C@H](NC(=O)CN)C(=O)N[C@@H](CSSC[C@@H](C(N)=O)NC(=O)[C@H](CO)NC(=O)[C@H](CCCNC(=N)N)NC1=O)C(=O)N[C@@H](CO)C(=O)N[C@@H](Cc1c[nH]cn1)C(=O)N1CCC[C@H]1C(=O)N[C@@H](C)C(=O)N2	Neuronal acetylcholine receptor; alpha9/alpha10 (Homo sapiens, UniProt Q9GZZ6+Q9UGM1)	ion current, antagonist	Xenopus oocytes	10 µM, 5 min, after washout, together with: acetylcholine	baseline: control	recovery of response	0.5 ± 0.7%
CCOP(=S)(OCC)Oc1ccc([N+](=O)[O-])cc1	Bche		ES1+/+ mice, plasma	subcutaneous, 12.5 mg/kg, 6.0 h, toxicant challenge		inhibition	71.5 ± 3.9%
CC(C)OP(=S)(OC(C)C)SCCNS(=O)(=O)c1ccccc1	ACHE (Homo sapiens, UniProt P22303)	enzyme activity, inhibitor, colorimetric		rat liver microsomes with NADPH		IC50	inactive

For quick reference, copied from above:
Structure (SMILES)	target or system	assay	test system	conditions	how to read	endpoint	result
CC[C@H](C)[C@@H]1NC(=O)[C@H](CC(N)=O)NC(=O)[C@H](Cc2ccc(O)cc2)NC(=O)[C@H]([C@@H](C)O)NC(=O)[C@@H]2CSSC[C@@H]3NC(=O)[C@H](CC(N)=O)NC(=O)[C@H](Cc4ccc(O)cc4)NC(=O)[C@H](C(C)C)NC(=O)CNC(=O)[C@H]([C@@H](C)O)NC(=O)CNC(=O)[C@H](CCCCN)NC(=O)[C@@H]4CSSC[C@H](NC(=O)[C@H](CO)NC(=O)[C@H](CC(C(=O)O)C(=O)O)NC(=O)CNC3=O)C(=O)N[C@@H](CO)C(=O)N[C@H]3CSSC[C@H](NC(=O)CNC(=O)[C@H](CO)NC(=O)[C@H](CCCCN)NC(=O)[C@H](CCSC)NC(=O)[C@H](CO)NC(=O)CNC1=O)C(=O)N[C@@H](C)C(=O)N[C@@H](CSSC[C@H](NC(=O)[C@H](CO)NC(=O)[C@H](Cc1c[nH]cn1)NC(=O)[C@H](CC(C)C)NC(=O)CNC(=O)[C@H](CC(C(=O)O)C(=O)O)NC3=O)C(=O)N[C@@H](CCCNC(=N)N)C(=O)N2)C(=O)N[C@@H]([C@@H](C)CC)C(=O)N[C@H](C(=O)N[C@H](C(=O)N[C@@H](Cc1ccc(O)cc1)C(=O)N[C@@H](Cc1ccc(O)cc1)C(=O)O)[C@@H](C)O)CSSC[C@H](NC(=O)[C@@H](N)CCCCN)C(=O)N[C@@H](CC(N)=O)C(=O)N[C@@H](Cc1ccccc1)C(=O)N[C@@H](CC(=O)O)C(=O)N[C@@H](CCCCN)C(=O)N4	Nicotinic acetylcholine receptor alpha-1/beta-1/delta/epsilon (Homo sapiens, UniProt P02708+P11230+Q04844+Q07001)	ion current, antagonist	Xenopus oocytes			Hill slope	0.71
CCN(CC)Cc1cc(N)ccc1O	Acetylcholinesterase, paraoxon-inhibited (ACHE, Homo sapiens, UniProt P22303)	reactivation of inhibited enzyme, reactivator		together with: paraoxon-inhibited enzyme		KR	11 ± 9.1 µM
